Measured values of several laboratories.
Protocols differ between the studies behind these lines. Numbers after ± are the reported error.

Under “apparent oral clearance”, Cc1c(OCC(F)(F)F)ccnc1C[S+]([O-])c1nc2ccccc2[nH]1 (centres unmarked) is recorded as 12.4 L/h (human, plasma; oral, median).
Under “apparent volume of distribution”, NC(=O)N1c2ccccc2CC(=O)c2ccccc21 is recorded as 25.7 L (population PK modelling; human patients, plasma; oral, dose not given, joint parent-metabolite model).
C[C@H](Cn1cnc2c(N)ncnc21)OCP(=O)(O)O: “apparent volume of distribution” 2380 L (population PK model; human, plasma; oral, dose not given, simultaneous model bootstrap median).
The apparent clearance of CNC(=O)c1ccc(N2C(=S)N(c3ccc(C#N)c(C(F)(F)F)c3)C(=O)C2(C)C)cc1F is reported as 0.43 L/h (population PK base model; human).
CCCOc1ccc([C@H]2CNC(=O)N2c2ccc3[nH]cnc3c2)cc1 — result for “apparent terminal half-life”: 3.57 h (human volunteers fasted, plasma; oral tablet, 200 mg single dose, crossover, geometric mean).
Under “apparent clearance CL/F”, C=CC(=O)N(C)CCOc1c(N)ncnc1-c1cc(F)cc(NC(=O)c2ccc(C3CC3)cc2F)c1C is recorded as 343 L/h (human, whole blood; oral, 200 mg, single ascending dose).
For Cn1cc(-c2cn3nccc3c(-c3cnn([C@]4(CC#N)C[C@@H](C#N)C4)c3)n2)cn1, “apparent volume Vz/F” read 312 L (healthy humans fasted, plasma; 3 mg single dose, geometric mean).
For Cl.[2H]C([2H])([2H])CC(=O)c1cnc(NC(=O)C2CC2)cc1Nc1cccc(-c2ncn(C([2H])([2H])[2H])n2)c1OC, “apparent volume at steady state” read 203 L (human, non-fasted; oral, 60 mg once daily, day 14, multiple dose, tablet, geometric mean).
NC(N)=NCCC[C@@H](N)C(=O)N[C@@H](CCCN=C(N)N)C(=O)N1CCC[C@H]1C(=O)N1C[C@H](O)C[C@H]1C(=O)NCC(=O)N[C@@H](Cc1cccs1)C(=O)N[C@@H](CO)C(=O)N1Cc2ccccc2C[C@@H]1C(=O)N1[C@H](C(=O)N[C@@H](CCCN=C(N)N)C(=O)O)C[C@@H]2CCCC[C@@H]21 — result for “apparent clearance (CL/F)”: 14 L/h (popPK base model typical value; human; subcutaneous, reference weight 70 kg).
C[C@@]1(c2cc(NC(=O)c3ccc(C#N)cn3)ccc2F)C=CSC(N)=N1 — result for “apparent clearance CL/F”: 10.4 L/h (elderly humans, both sexes, plasma; oral, 90 mg single dose, mean).
NC[C@@]1(CC(=O)O)[C@@H]2CC[C@H]3C[C@@H]2[C@@H]1C3 gave an apparent clearance of 11.2 L/h (human, normal renal function, plasma; oral, 20 mg single dose, geometric mean).
O=C(Nc1nc2cccc(-c3ccc(CN4CCS(=O)(=O)CC4)cc3)n2n1)C1CC1 — result for “apparent peripheral volume”: 35.5 L (population PK SIR median; human; oral, dose not given).
CC[C@@H]1CN(C(=O)NCC(F)(F)F)C[C@@H]1c1cnc2cnc3[nH]ccc3n12: “apparent peripheral volume (Vp/F)” 68 L (population PK modelling; human; oral, dose not given, final model, outliers excluded).
For Cc1nc(Nc2ncc(C(=O)Nc3c(C)cccc3Cl)s2)cc(N2CCN(CCO)CC2)n1, “apparent oral clearance” read 1980 mL/min/m² (human patients, plasma; oral, dose not given, day 8, median of combined dose levels).
Under “apparent clearance (CL/F)”, CCCCC1=NC2(CCCC2)C(=O)N1Cc1ccc(-c2ccccc2S(=O)(=O)Nc2noc(C)c2C)c(COCC)c1 is recorded as about 5 L/h (healthy adult human volunteers; oral, 400 mg single dose).
COc1ccc(-n2nc(C(N)=O)c3c2C(=O)N(c2ccc(N4CCCCC4=O)cc2)CC3)cc1: “apparent peripheral volume” 21.8 ± 1.48 L (human, plasma; oral, dose not given, Base population PK model).
Under “apparent oral clearance CL/F”, COc1cc(C(=O)NC2CCN(C)CC2)c(F)cc1Nc1ncc(C(F)(F)F)c(Oc2cccc3c2C(=O)N(C)C3)n1 is recorded as 123 mL/min (human patients, plasma; oral, 100 mg single dose, geometric mean).

For quick reference, copied from above:
For Cl.[2H]C([2H])([2H])CC(=O)c1cnc(NC(=O)C2CC2)cc1Nc1cccc(-c2ncn(C([2H])([2H])[2H])n2)c1OC, “apparent volume at steady state” read 203 L (human, non-fasted; oral, 60 mg once daily, day 14, multiple dose, tablet, geometric mean).
